Results of several laboratories.
Numbers after ± are the reported error.

For CC[C@H](C)[C@H](NC(=O)[C@H](CCCNC(=N)N)NC(=O)[C@H](CCCCN)NC(=O)[C@H](Cc1ccc(O)cc1)NC(=O)[C@H](CC(=O)O)NC(=O)[C@H](C)NC(=O)CNC(=O)CCOCCOCCOCCNC(=O)CN1CCN(CC(=O)O)CCN(CC(=O)O)CCN(CC(=O)O)CC1)C(=O)N[C@H](C(=O)N[C@@H](CC(C)C)C(=O)N[C@@H](CCCCN)C(=O)N[C@H](C(=O)N[C@@H](CC(N)=O)C(N)=O)C(C)C)[C@@H](C)O [copper-64 labelled], the retention time was 7.83 min (radio-RP-HPLC; MeCN/water TFA gradient; longer means more hydrophobic).
CC(=O)N[C@H](CCCCN)C(=O)N[C@H](CC(C)C)C(=O)N[C@H](CCCCN)C(=O)N[C@H](CO)C(=O)N[C@H](CC(C)C)C(=O)N[C@H](CC(C)C)C(=O)N[C@H](CCCCN)C(=O)N[C@@H](C(=O)N[C@H](CC(C)C)C(=O)N[C@H](CO)C(=O)N[C@H](CCCCN)C(=O)N[C@H](C)C(=O)N[C@H](CCCCN)C(=O)N[C@H](CCCCN)C(=O)N[C@H](CCCCN)C(=O)N[C@H](CC(C)C)C(=O)N[C@H](CC(C)C)C(=O)N[C@H](CCCCN)C(=O)N[C@@H](C(=O)N[C@H](C)C(=O)N[C@H](CC(C)C)C(=O)N[C@H](CCCCN)C(=O)N[C@H](C)C(=O)N[C@H](CC(C)C)C(=O)N[C@H](CO)C(=O)N[C@H](CCCCN)C(N)=O)[C@H](C)O)[C@H](C)O has a retention time of 93 min (RP-HPLC C8; pH 2, hydrophobicity measure).
For Cc1c(C)c(C)[c-](C)c1C.O=[N+]([O-])c1c[c-]c(-c2ccccn2)cc1.[Cl-].[Ir+3], the retention time was 18.8 ± 0.2 min (RP-HPLC; C18 column, water/acetonitrile; added: 50 mM NaCl; longer = more hydrophobic).
With CCCCCCCCCCCCCCCCCCCC(=O)N[C@@H](CCCCN)C(=O)N[C@@H](CCCCN)C(=O)N[C@@H](CCCCN)C(=O)N[C@@H](CCCCN)C(=O)N[C@@H](CCCCN)C(N)=O the retention time was 17.3 min (RP-HPLC C18).
CC[C@@H](C)[C@@H](NC(=O)[C@@H](CC(C)C)NC(=O)[C@@H](CCCCN)NC(=O)[C@@H](CC(C)C)NC(=O)[C@@H](CC(C)C)NC(=O)[C@H](NC(=O)[C@@H](Cc1c[nH]cn1)NC(=O)[C@@H](CC(C)C)NC(=O)[C@@H](CCCCN)NC(=O)[C@H](NC(=O)[C@@H](CCCCN)NC(=O)[C@@H](CCCCN)NC(=O)[C@@H](CC(C)C)NC(=O)[C@@H](CO)NC(=O)[C@@H](CCCCN)NC(=O)[C@@H](Cc1ccccc1)NC(=O)[C@H](NC(=O)[C@@H](CCCCN)NC(=O)[C@@H](CC(C)C)NC(=O)[C@@H](Cc1ccccc1)NC(=O)[C@@H](CO)NC(=O)[C@@H](CCCCN)NC(=O)[C@@H](Cc1c[nH]c2ccccc12)NC(=O)[C@@H](CCCCN)NC(C)=O)[C@H](C)O)[C@H](C)O)[C@H](C)O)C(=O)N[C@H](CO)C(=O)N[C@H](CO)C(N)=O gave a retention time of 80.4 min (RP-HPLC C8; pH 2).
With CC(C)C[C@@H]1NC(=O)[C@H](CCCCN)NC(=O)[C@H](C(C)C)NC(=O)[C@@H]2CCCN2C(=O)[C@@H](Cc2ccc(O)cc2)NC(=O)[C@H](CC(C)C)NC(=O)[C@H](CCCCN)NC(=O)[C@H](C(C)C)NC(=O)[C@H](CCCCN)NC(=O)[C@@H]2CCCN2C(=O)[C@@H](Cc2ccc(O)cc2)NC(=O)[C@H](CCCCN)NC1=O the retention time was 22.9 min (RP-HPLC C8; 70 °C, water/acetonitrile TFA gradient).
CCCCCCCCCCCCCCCC(=O)N[C@@H](CCCCN)C(=O)N[C@@H](CCCCN)C(=O)N[C@@H](CCCCN)C(=O)N[C@@H](CCCCN)C(=O)N[C@@H](CCCCN)C(N)=O has a retention time of 14.3 min (RP-HPLC C18).
The retention time of CC[C@@H](C)[C@@H](NC(=O)[C@@H](C)NC(=O)[C@@H](CCCCN)NC(=O)[C@@H](CC(C)C)NC(=O)[C@@H](C)NC(=O)[C@H](NC(=O)[C@@H](CCCCN)NC(=O)[C@@H](CC(C)C)NC(=O)[C@H](NC(=O)[C@@H](CCCCN)NC(=O)[C@@H](CCCCN)NC(=O)[C@@H](CCCCN)NC(=O)[C@@H](C)NC(=O)[C@@H](CCCCN)NC(=O)[C@@H](CO)NC(=O)[C@@H](Cc1ccccc1)NC(=O)[C@H](NC(=O)[C@@H](CCCCN)NC(=O)[C@@H](CC(C)C)NC(=O)[C@@H](Cc1ccccc1)NC(=O)[C@@H](CO)NC(=O)[C@@H](CCCCN)NC(=O)[C@@H](Cc1c[nH]c2ccccc12)NC(=O)[C@@H](CCCCN)NC(C)=O)[C@H](C)O)C(C)C)[C@H](C)O)C(=O)N[C@H](CO)C(=O)N[C@H](CCCCN)C(N)=O is reported as 85.4 min (RP-HPLC C8; pH 2, hydrophobicity measure).
CC(C)C[C@@H]1NC(=O)[C@H](CCCCN)NC(=O)[C@H](C(C)C)NC(=O)[C@H](CCCCN)NC(=O)[C@@H]2CCCN2C(=O)[C@@H](Cc2ccc(O)cc2)NC(=O)[C@H](CCCCN)NC(=O)[C@H](CCCCN)NC(=O)[C@H](C(C)C)NC(=O)[C@@H]2CCCN2C(=O)[C@@H](Cc2ccc(O)cc2)NC1=O gave a retention time of 19.1 min (RP-HPLC C8; 70 °C, water/acetonitrile TFA gradient).
For CC(=O)N[C@@H](Cc1c[nH]c2ccccc12)C(=O)N[C@@H](CCCCN)C(=O)N[C@@H](Cc1ccccc1)C(=O)N[C@@H](CCC(=O)O)C(=O)N[C@@H](Cc1ccccc1)C(=O)N[C@@H](CCCCN)C(=O)N[C@@H](Cc1ccccc1)C(=O)N[C@@H](CCC(=O)O)C(N)=O, the retention time was 12.7 min (reverse-phase HPLC C18).
CCCCCCCCCCCCCCCCCC(=O)N[C@@H](CCCN)C(=O)N[C@@H](CCCN)C(=O)N[C@@H](CCCN)C(=O)N[C@@H](CCCN)C(=O)N[C@@H](CCCN)C(N)=O has a retention time of 15.6 min (RP-HPLC C18).
CC(C)C[C@@H]1NC(=O)[C@H](CCCCN)NC(=O)[C@H](C(C)C)NC(=O)[C@@H]2CCCN2C(=O)[C@@H](Cc2ccc(O)cc2)NC(=O)[C@H](CC(C)C)NC(=O)[C@H](CCCCN)NC(=O)[C@H](C(C)C)NC(=O)[C@H](CCCCN)NC(=O)[C@@H]2CCCN2C(=O)[C@@H](Cc2ccc(O)cc2)NC1=O gave a retention time of 25.7 min (RP-HPLC C8; 70 °C, water/acetonitrile TFA gradient).
N=C(N)NCCC[C@H](NC(=O)[C@H](Cc1c[nH]c2ccccc12)NC(=O)[C@H](CCC(N)=O)NC(=O)[C@H](Cc1c[nH]c2ccccc12)NC(=O)[C@H](CCCNC(=N)N)NC(=O)[C@H](Cc1c[nH]c2ccccc12)NC(=O)[C@H](CCC(N)=O)NC(=O)[C@H](Cc1c[nH]c2ccccc12)NC(=O)[C@@H](N)CCCNC(=N)N)C(N)=O gave a retention time of 6.4 min (RP-HPLC C18; hydrophobicity measure).
The retention time of Cc1c(C)c(C)[c-](C)c1C.O=[N+]([O-])c1ccnc(-c2[c-]cccc2)c1.[Cl-].[Ir+3] is reported as 18 ± 0.1 min (RP-HPLC; C18 column, water/acetonitrile; added: 50 mM NaCl; longer = more hydrophobic).
For N=C(N)NCCC[C@H](NC(=O)[C@H](Cc1c[nH]c2ccccc12)NC(=O)[C@H](CCC(N)=O)NC(=O)[C@H](Cc1c[nH]c2ccccc12)NC(=O)[C@H](CCCN)NC(=O)[C@H](Cc1c[nH]c2ccccc12)NC(=O)[C@H](CCC(N)=O)NC(=O)[C@H](Cc1c[nH]c2ccccc12)NC(=O)[C@@H](N)CCCNC(=N)N)C(N)=O, the retention time was 6.4 min (RP-HPLC, C18 column; water/acetonitrile gradient with TFA).
C[C@@H]1NC(=O)[C@@H](Cc2ccc(O)cc2)NC(=O)[C@@H]2CSCC(=O)NCCCC[C@H](NC(=O)CSC[C@H](C(=O)N[C@@H](CCCCNC(=O)C[C@@H]3O[C@@H](C)[C@@H](O)[C@@H](O)[C@@H]3O)C(N)=O)NC1=O)C(=O)N1CCC[C@H]1C(=O)N[C@H](C)C(=O)N2 gave a retention time of 2.39 min (RP-UHPLC C18; 7.5 min gradient).
For CC(C)C[C@@H]1NC(=O)[C@H](CCCCN)NC(=O)[C@H](C(C)C)NC(=O)[C@@H]2CCCN2C(=O)[C@@H](Cc2ccc(O)cc2)NC(=O)[C@H](CC(C)C)NC(=O)[C@H](CCCCN)NC(=O)[C@H](C(C)C)NC(=O)[C@H](CCCCN)NC(=O)[C@H](CC(C)C)NC(=O)[C@@H]2CCCN2C(=O)[C@@H](Cc2ccc(O)cc2)NC(=O)[C@H](C(C)C)NC(=O)[C@H](CCCCN)NC1=O, the retention time was 30.9 min (RP-HPLC C8; 70 °C, water/acetonitrile TFA gradient).
